# Measurements gathered from unrelated publications.
# Protocols differ between the studies behind these lines. Numbers after ± are the reported error.
# Chain of UniProt P28074 (whole entry, looked up): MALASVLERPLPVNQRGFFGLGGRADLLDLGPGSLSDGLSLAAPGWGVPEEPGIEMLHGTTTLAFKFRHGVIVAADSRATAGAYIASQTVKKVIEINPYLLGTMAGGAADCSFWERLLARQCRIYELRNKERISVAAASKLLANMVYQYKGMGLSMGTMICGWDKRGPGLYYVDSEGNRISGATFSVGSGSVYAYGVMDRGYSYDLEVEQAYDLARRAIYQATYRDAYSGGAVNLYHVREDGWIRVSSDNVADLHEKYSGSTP
# Chain of UniProt Q923J1 (whole entry, unmodified, looked up): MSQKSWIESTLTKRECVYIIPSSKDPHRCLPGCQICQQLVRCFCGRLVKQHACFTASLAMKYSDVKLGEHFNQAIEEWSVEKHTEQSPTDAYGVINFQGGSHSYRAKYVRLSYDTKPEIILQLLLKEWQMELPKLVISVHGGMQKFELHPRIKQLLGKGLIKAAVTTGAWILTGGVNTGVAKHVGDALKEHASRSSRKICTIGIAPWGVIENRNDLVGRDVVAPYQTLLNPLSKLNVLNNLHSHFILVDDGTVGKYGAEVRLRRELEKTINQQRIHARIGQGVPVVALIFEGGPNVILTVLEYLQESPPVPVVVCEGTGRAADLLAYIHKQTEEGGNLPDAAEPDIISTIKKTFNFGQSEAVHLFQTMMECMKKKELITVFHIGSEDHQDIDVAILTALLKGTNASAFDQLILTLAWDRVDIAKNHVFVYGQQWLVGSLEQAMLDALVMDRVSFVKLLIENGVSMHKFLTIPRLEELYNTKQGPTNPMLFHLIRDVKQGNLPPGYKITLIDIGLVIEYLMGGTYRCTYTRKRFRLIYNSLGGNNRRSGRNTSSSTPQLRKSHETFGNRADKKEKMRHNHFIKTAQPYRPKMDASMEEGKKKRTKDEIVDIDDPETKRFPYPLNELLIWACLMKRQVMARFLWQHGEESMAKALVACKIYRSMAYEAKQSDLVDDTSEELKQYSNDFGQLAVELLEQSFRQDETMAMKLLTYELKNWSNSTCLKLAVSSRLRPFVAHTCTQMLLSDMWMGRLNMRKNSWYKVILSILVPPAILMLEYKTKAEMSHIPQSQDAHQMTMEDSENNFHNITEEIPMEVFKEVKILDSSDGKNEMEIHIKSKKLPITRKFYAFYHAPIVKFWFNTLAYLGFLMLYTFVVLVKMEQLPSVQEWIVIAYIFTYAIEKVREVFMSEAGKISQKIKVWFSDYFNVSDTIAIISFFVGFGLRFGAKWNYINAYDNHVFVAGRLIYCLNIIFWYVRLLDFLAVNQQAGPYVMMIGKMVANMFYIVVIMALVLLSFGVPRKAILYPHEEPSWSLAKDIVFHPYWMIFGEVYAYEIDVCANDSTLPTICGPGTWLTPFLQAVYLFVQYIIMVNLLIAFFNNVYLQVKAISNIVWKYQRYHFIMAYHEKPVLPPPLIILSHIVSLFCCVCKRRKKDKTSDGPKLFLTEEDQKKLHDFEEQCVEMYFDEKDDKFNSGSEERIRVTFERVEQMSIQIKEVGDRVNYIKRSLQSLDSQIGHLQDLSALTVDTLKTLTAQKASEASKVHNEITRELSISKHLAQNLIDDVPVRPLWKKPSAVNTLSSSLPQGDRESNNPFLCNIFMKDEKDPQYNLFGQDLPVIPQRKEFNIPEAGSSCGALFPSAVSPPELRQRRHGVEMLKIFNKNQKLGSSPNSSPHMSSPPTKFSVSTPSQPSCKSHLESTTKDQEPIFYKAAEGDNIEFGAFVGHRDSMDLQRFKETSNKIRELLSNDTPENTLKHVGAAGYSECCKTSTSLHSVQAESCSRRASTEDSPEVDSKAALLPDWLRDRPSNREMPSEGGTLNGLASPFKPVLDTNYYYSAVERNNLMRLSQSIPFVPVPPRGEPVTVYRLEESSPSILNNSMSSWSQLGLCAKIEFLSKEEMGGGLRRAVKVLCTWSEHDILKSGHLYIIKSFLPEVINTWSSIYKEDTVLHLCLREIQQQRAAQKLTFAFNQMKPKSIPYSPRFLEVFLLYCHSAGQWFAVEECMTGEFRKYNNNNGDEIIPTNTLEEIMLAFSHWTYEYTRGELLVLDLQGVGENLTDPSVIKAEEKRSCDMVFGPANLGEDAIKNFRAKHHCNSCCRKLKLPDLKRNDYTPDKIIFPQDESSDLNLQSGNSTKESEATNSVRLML
# Chain of UniProt Q8IXJ6 (whole entry, looked up): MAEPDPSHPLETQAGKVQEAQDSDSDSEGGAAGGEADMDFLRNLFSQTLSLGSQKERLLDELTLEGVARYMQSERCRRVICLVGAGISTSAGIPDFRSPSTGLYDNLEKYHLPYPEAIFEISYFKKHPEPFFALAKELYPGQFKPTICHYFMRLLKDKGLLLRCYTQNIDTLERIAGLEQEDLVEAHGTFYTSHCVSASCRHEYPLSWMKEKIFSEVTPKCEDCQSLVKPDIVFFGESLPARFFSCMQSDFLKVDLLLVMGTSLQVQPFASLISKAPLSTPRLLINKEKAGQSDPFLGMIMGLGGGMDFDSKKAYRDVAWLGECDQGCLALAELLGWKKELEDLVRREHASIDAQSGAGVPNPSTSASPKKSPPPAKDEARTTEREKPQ
# Chain of UniProt P04818 (whole entry, looked up): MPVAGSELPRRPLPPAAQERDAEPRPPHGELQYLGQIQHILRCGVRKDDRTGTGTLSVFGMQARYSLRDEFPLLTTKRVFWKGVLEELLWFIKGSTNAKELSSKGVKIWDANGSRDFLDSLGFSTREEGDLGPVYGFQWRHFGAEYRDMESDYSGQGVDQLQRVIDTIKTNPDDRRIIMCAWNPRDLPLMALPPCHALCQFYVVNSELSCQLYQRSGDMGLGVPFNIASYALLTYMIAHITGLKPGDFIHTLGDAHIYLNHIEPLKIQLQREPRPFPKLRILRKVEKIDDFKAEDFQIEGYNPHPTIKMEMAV
# Chain of UniProt Q99873 (whole entry, looked up): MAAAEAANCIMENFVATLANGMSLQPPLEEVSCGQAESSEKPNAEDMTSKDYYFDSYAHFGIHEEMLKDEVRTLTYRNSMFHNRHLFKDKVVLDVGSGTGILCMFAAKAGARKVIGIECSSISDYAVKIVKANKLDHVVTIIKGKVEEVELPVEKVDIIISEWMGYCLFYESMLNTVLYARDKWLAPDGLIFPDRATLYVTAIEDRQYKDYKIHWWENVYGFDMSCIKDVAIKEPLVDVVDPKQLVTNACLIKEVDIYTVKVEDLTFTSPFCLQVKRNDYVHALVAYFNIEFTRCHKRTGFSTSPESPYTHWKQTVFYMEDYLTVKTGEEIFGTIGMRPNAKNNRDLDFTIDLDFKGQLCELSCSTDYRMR
# Chain of UniProt P27361 (whole entry, looked up): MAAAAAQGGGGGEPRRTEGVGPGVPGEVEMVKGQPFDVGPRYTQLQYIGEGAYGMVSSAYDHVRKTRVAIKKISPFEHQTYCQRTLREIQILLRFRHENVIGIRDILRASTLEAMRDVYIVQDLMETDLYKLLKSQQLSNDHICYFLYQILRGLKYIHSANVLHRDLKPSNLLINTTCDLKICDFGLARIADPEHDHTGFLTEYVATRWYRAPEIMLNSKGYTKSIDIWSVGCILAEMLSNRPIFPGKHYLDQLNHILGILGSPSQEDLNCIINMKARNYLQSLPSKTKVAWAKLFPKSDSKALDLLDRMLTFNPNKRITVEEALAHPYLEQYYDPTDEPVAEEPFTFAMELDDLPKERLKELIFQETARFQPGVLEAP
# Chain of UniProt P42575 (whole entry, looked up): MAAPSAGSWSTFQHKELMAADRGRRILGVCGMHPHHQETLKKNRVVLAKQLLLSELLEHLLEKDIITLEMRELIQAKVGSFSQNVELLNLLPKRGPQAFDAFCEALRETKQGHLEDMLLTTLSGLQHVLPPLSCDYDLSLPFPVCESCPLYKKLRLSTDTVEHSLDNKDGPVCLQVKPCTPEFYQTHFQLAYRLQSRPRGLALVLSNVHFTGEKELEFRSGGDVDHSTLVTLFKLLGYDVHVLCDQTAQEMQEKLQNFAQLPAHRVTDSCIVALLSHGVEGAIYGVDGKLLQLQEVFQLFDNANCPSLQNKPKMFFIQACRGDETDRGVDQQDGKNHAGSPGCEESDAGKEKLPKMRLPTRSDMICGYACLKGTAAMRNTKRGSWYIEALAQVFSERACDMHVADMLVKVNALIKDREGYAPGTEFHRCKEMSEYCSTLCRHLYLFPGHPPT
# Chain of UniProt P45984 (whole entry, looked up): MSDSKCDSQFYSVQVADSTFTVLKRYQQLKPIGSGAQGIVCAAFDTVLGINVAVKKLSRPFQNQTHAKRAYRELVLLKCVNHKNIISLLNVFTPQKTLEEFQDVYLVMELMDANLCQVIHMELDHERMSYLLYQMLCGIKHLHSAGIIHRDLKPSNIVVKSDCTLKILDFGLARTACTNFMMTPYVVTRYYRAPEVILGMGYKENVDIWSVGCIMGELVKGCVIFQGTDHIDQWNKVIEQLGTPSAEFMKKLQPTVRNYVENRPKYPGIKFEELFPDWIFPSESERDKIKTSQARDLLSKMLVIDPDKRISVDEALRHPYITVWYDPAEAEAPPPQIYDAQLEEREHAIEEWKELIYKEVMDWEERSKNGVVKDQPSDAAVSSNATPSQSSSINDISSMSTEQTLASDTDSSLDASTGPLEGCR
# Chain of UniProt Q14781 (whole entry, looked up): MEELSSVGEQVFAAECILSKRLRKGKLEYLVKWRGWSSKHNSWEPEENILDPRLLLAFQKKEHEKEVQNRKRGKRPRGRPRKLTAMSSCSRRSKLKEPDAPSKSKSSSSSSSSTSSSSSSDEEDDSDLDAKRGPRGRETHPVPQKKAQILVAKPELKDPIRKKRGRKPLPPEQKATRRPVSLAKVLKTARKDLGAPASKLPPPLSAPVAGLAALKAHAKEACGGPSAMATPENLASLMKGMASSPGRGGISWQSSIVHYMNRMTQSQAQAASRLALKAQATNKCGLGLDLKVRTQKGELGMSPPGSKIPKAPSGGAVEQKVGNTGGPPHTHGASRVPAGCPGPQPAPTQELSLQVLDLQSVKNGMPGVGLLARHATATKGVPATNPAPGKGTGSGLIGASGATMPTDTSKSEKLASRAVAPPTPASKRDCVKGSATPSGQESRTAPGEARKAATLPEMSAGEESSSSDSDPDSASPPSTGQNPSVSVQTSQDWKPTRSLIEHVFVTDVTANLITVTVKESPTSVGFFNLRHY
SMILES,tested on,assay,system,setting,endpoint,value
O=c1[nH]cc(S(=O)(=O)Nc2cccc(-c3nnc(-c4ccc(F)cc4)o3)c2)c(=O)[nH]1,"Thymidylate synthase (TYMS, Homo sapiens, UniProt P04818)","enzyme activity, inhibitor, absorbance",,,IC50,5.61 µM
CCCCCCc1ccc(S(=O)(=O)N2CC2C(=O)N2CCCC2)cc1 (stereo not shown),"Protein disulfide-isomerase A3 (PDIA3, Homo sapiens, UniProt P30101)","enzyme activity, inhibitor, absorbance",,pH 7.6,IC50,112 µM
C=C(NC(=O)C(=C)NC(=O)c1csc(C2=NC3c4csc(n4)C4NC(=O)c5csc(n5)C(C(C)(O)C(C)O)NC(=O)C5CSC(=N5)C(=CC)NC(=O)C(C(C)O)NC(=O)c5csc(n5)C3(CC2)NC(=O)C(Cc2ccccc2)NC(=O)C(=C)NC(=O)C(C)NC(=O)C(C(C)CC)NC2C=Cc3c(C(C)O)cc(nc3C2O)C(=O)OC4C)n1)C(N)=O (stereo not shown),"Proteasome Macropain subunit MB1 (PSMB5, Homo sapiens, UniProt P28074)","chymotrypsin-like activity, inhibitor",purified 20S proteasome,"15 min preincubation, 37 °C, together with: Suc-Leu-Leu-Val-Tyr-AMC substrate",IC50,0.37 ± 0.09 µM
COc1cc(CNC(=O)C[C@H](C)CCC=C(C)C)ccc1OCc1cn(-c2ccc(Cl)c(Cl)c2)nn1,ACHN,SRB,,"10 µM, 48 h",growth percent,71.5%
NC1(Cc2ccc(Cl)cc2)CCN(c2ncnc3[nH]ccc23)CC1,"Transient receptor potential cation channel subfamily M member 7 (Trpm7, Mus musculus, UniProt Q923J1, F924A)",calcium signal,,,IC50,2.32 µM
Cc1cc(C)nc(SCC(=O)Nc2ncc(Cc3cccc(OCc4cn(-c5ccc(Cl)cc5)nn4)c3)s2)n1,"NAD-dependent protein deacetylase sirtuin-2 (SIRT2, Homo sapiens, UniProt Q8IXJ6)",inhibitor,,,IC50,4.2 ± 0.1 µM
N=C(N)NCCCC(N)C(=O)NCC(=O)NC(CCCCNC(=N)NCCSCC1OC(n2cnc3c(N)ncnc32)C(O)C1O)C(N)=O (stereo not shown),"Protein arginine N-methyltransferase 1 (PRMT1, Homo sapiens, UniProt Q99873)",inhibitor,,,IC50,8.3 ± 0.1 µM
Cc1ccc(OCC(=O)N[C@@H](Cc2cn(CCNC(=O)c3ccc(S[C@@H]4O[C@H](CO)[C@H](O)[C@H](O)[C@H]4O)cc3)nn2)C(=O)NCCO)cc1,"PA-I galactophilic lectin (lecA, Pseudomonas aeruginosa, UniProt Q05097)","ligand displacement, FP",,,IC50,60.7 µM
CC(C)[C@H](NC(=O)c1ccc2ccccc2n1)C(=O)N[C@@H](CC(=O)O)C(=O)N[C@H](C(=O)N[C@@H](C)C(=O)N[C@@H](CC(=O)O)C(=O)COc1c(F)cccc1F)C(C)C,"Caspase-2 (Homo sapiens, UniProt P42575)","enzyme activity, inhibitor, absorbance",,,IC50,0.0074 µM
N[C@@H](Cc1c[nH]c2ccc(OCc3cccc(-c4ccco4)c3)cc12)C(=O)O,"Large neutral amino acids transporter small subunit 1 (SLC7A5, Homo sapiens, UniProt Q01650)","transporter uptake, inhibitor, radiometric",,,IC50,20 µM
Cc1ccc2oc(-c3c4c(N)n[nH]c(=O)c4nn3-c3ccc(NC(=O)/C=C/CN(C)C)cc3)c(C)c2c1,"Mitogen-activated protein kinase 3 (MAPK3, Homo sapiens, UniProt P27361)","enzyme activity, inhibitor, FRET",,,IC50,> 1 µM
CC(C)C[C@H](NC(=O)[C@H](CC(N)=O)NC(=O)[C@H](CC(C)C)NC(=O)[C@@H](NC(=O)[C@@H](NC(=O)[C@@H]1CCCN1C(=O)[C@H](CCCNC(=N)N)NC(=O)[C@H](CCCCN)NC(=O)[C@@H]1CCCN1)[C@@H](C)O)[C@@H](C)O)C(=O)N[C@@H](Cc1ccccc1)C(=O)NCCCCCC(=O)N[C@@H](CCCNC(=N)N)C(=O)N[C@@H](CCCNC(=N)N)C(=O)N[C@@H](CCCNC(=N)N)C(=O)N[C@@H](CCCNC(=N)N)C(=O)N[C@@H](CCCNC(=N)N)C(=O)N[C@@H](CCCNC(=N)N)C(=O)N[C@@H](CCCNC(=N)N)C(=O)N[C@@H](CCCNC(=N)N)C(=O)N[C@@H](CCCNC(=N)N)C(N)=O,"Mitogen-activated protein kinase 9 (MAPK9, Homo sapiens, UniProt P45984)","kinase activity, inhibitor, radiometric",,"pH 7.5, 30 °C, together with: GST-c-Jun substrate",IC50,0.089 ± 0.005 µM
COc1ccc(C(=O)/C=C/c2ccc(O)cc2)c(O)c1CC=C(C)C,"Amine oxidase [flavin-containing] A (Maoa, Rattus norvegicus, UniProt P21396)","enzyme activity, inhibitor",,together with: serotonin,IC50,3520 µM
O=C(Nc1ccc(C(=O)Nc2ccc(C(=O)Nc3ccc(S(=O)(=O)O)c4cc(S(=O)(=O)O)cc(S(=O)(=O)O)c34)cc2)cc1)Nc1ccc(C(=O)Nc2ccc(C(=O)Nc3ccc(S(=O)(=O)O)c4cc(S(=O)(=O)O)cc(S(=O)(=O)O)c34)cc2)cc1,"Neutrophil elastase (ELANE, Homo sapiens, UniProt P08246)","enzyme activity, inhibitor, absorbance",,pH 7.4,IC50,0.22 µM
COc1cc(CNC(=O)C[C@H](C)CCC=C(C)C)ccc1OCc1cn(-c2ccc(F)cc2)nn1,MDA-MB-435 melanoma cells,SRB,,"10 µM, 48 h",growth percent,104%
CN(C)C/C=C/C(=O)Nc1ccc2nc(NCCCCCN(C)C)nc(NCCCCCCN(C)C)c2c1,"Chromobox protein homolog 2, chromodomain (Homo sapiens, UniProt Q14781)","methyl-lysine binding, TR-FRET",,,IC50,> 100 µM

# Some of these lines once more:
SMILES,tested on,assay,system,setting,endpoint,value
Cc1ccc2oc(-c3c4c(N)n[nH]c(=O)c4nn3-c3ccc(NC(=O)/C=C/CN(C)C)cc3)c(C)c2c1,"Mitogen-activated protein kinase 3 (MAPK3, Homo sapiens, UniProt P27361)","enzyme activity, inhibitor, FRET",,,IC50,> 1 µM
Cc1cc(C)nc(SCC(=O)Nc2ncc(Cc3cccc(OCc4cn(-c5ccc(Cl)cc5)nn4)c3)s2)n1,"NAD-dependent protein deacetylase sirtuin-2 (SIRT2, Homo sapiens, UniProt Q8IXJ6)",inhibitor,,,IC50,4.2 ± 0.1 µM
